Results of several laboratories.
Each line is one published result; not all experiments were run side by side. Numbers after ± are the reported error.
Cell line: HCT-116

Under “reduction of cell number”, O=P1(C2CCCCC2)CCCCC1 is recorded as 29% (trypan blue; IC50, 72 h; reference: untreated).
With NC(=O)NO the cell confluence was 8.79 ± 1.41% (cell growth, live-cell imaging; 500 µM, control at 90% confluence).
The viability of Cn1cnc2c(F)c(Nc3ccc(Br)cc3F)c(C(=O)NOCCO)cc21 is reported as 24.1% (10 µM, 72 h).
The TNF-α level of O=[N+]([O-])c1cc(I)c(O)c(C=NNc2ccccc2)c1 is reported as 88.7% (ELISA; culture supernatant; IC50, added: LPS).
Under “apoptotic cells Early”, COc1nc(NCc2cn(-c3ccc(C(=O)Nc4ccccc4)cc3)nn2)nc(OC)n1 is recorded as 18.4% (annexin V-FITC/PI; IC50, 24 h).
With NC(=O)NOCCCCCCCCCCCCCCCC[P+](c1ccccc1)(c1ccccc1)c1ccccc1.O=C([O-])C(F)(F)F the cell confluence was 15.8% (cell growth, live-cell imaging; 0.8 µM, control at 90% confluence).
COc1nc(NCc2cn(-c3ccc(C(=O)Nc4ccc(C(F)(F)F)cc4)cc3)nn2)nc(OC)n1 — result for “apoptotic cells Late”: 19.5% (annexin V-FITC/PI; IC50, 24 h).
O=[N+]([O-])c1cc(Br)c(O)c(C=NNc2ccc(C(F)(F)F)cc2)c1 has an IL-6 level of 41% (ELISA; culture supernatant; IC50, added: LPS).
NC(=O)NOCCCCCCCCCC[P+](c1ccccc1)(c1ccccc1)c1ccccc1.O=C([O-])C(F)(F)F has a cell confluence of 3.45% (cell growth, live-cell imaging; 20 µM, control at 90% confluence).
The viability of O=C(NOC[C@H](O)CO)c1ccc(F)c(F)c1Nc1ccc(I)cc1F is reported as 17% (10 µM, 72 h).

Excerpt of the above:
NC(=O)NOCCCCCCCCCC[P+](c1ccccc1)(c1ccccc1)c1ccccc1.O=C([O-])C(F)(F)F has a cell confluence of 3.45% (cell growth, live-cell imaging; 20 µM, control at 90% confluence).
